Measurements of several laboratories.
Numbered parts are unrelated; each lists some results of a single study.

Block 1 — method: RNA Bind-n-Seq; form: RNA; sample: in vitro; concentration: 365 nM; relative to: no-protein control; reading: higher = stronger binding
Target: RNA binding protein fox-1 homolog 2, RRM domain, GST-SBP tag (RBFOX2, Homo sapiens, UniProt O43251-10, residues 100-194)
Setting: natural RNA segment, single round, ends assumed
Residues (chain): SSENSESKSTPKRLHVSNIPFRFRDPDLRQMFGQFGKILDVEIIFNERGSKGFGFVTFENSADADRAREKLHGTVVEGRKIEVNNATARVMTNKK
Under “RBNS enrichment (R)”, `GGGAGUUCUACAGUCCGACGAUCGCUUUUAAAAAAGUGUUCCCUAUUUAUUUAGGAAAAAGUGAAGCAAGCAACUGAAUUUAUAUGUAAAAAUAACAUUUAGACCUGUGGAUCAAAGAUUAUUUUCAAAAAUGUGGAAUUCUCGGGUGCCAA` is recorded as 0.421.
`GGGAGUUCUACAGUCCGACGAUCUGUGCUUAUUUGGAAUUUCCAUAAAAAGAGUAUCCUUUUUAUACACUUAAUAGUGACUUUACAAAAUAAAAGUUAUAUUCUCAGUUGUUUAAAAUCACUAACCUAUGAUAUGGAAUUCUCGGGUGCCAA`: “RBNS enrichment (R)” 0.642.
For `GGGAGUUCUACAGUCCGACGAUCGGCAAUAAUCAACAAUCUUCCAGAUUUGCACAAAAAGAUCUUGAAAUUUGAUGCAUAACUUUUAAGUACACUUAACACUUCAGGGCAGGAUUUUACUUUUAUUUUUUAAAUGGAAUUCUCGGGUGCCAA`, “RBNS enrichment (R)” read 0.807.
For `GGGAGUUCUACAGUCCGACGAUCAGGAAUGACAGCAGACUACAAAGCAAAUAAGAUAUACUGAGCCUCAACAGAUUGCCUGCUCCUCAGAGUCUCUCCUAUUUUUGUAUUACCCAGCUUUCUUUUUAAUACAAUGGAAUUCUCGGGUGCCAA`, “RBNS enrichment (R)” read 1.84.
`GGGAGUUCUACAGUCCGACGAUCAUCUAAAAUUCUACUUUUAGAGUUGAAACAGAGUAAUAACUUAUCUAACCCUCUUUUCCUACAAAGGAGAAAGAUAAAAGGCACAAAGGUUACCGCCAAGGCCCGUCAGCUGGAAUUCUCGGGUGCCAA` — result for “RBNS enrichment (R)”: 0.231.
`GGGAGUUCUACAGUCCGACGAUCGUUACCUGAUUUGUGCCUUAGGAUGCAGCGUGAAGCAGAAGUCCAUAUUGCAAUUAUGAUUUUAGAAGGAACUAAGCAUUUUACUCACACCCACAGCAGCAAGAAUGACCUGGAAUUCUCGGGUGCCAA`: “RBNS enrichment (R)” 3.03.
`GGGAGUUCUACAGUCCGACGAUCCACCAUGUUGGCCAGGCUCGUCUCGAACUCCUGACUUCAGGUGAUCCACCCAUCUCAGCCUCCCAAAGUGCUGGGAUUACAGGCGUGAGCCACCAUGCCCGGCCCAUAAGUGGAAUUCUCGGGUGCCAA` — result for “RBNS enrichment (R)”: 0.213.
`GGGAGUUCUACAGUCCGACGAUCGGCAAAAACACAGUUCCUUACUUUGCAUUUAGUAAAAACAAGAAAAAGUGUUAGUGAGGGUUAAGCAGGAAUACUAACUGCUCAUUUCUCAGUUCAGUGGAUAUAUGUAUUGGAAUUCUCGGGUGCCAA` — result for “RBNS enrichment (R)”: 0.63.

Block 2 — method: RNA Bind-n-Seq; form: RNA; sample: in vitro; concentration: 200 nM; setting: whole 134-nt RNA, ends assumed; added: 150 mM LiCl; relative to: input library; reading: higher = stronger binding; library: 7-deaza-guanosine replaces G
Target: Fragile X messenger ribonucleoprotein 1, C-terminal low-complexity region (Fmr1, Mus musculus, UniProt P35922)
The log2 enrichment of `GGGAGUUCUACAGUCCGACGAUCACCUUCACGGCAUGGUGCAACUCCCACCUGCGGAAGGCAGGCACACAGAUCGAGAACAUUGAUGAGGACUUCCGAGACGGGCUCAAGCUCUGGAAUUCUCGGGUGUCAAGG` is reported as 0.965.
For `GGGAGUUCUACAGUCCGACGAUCGCAGGAAGUAAAAACAAGUGGAAAUGCUUCGGAUAGUGGCAGGGGUGGGGGUUGCUAAGGAAAGGGUGGGAUGGGAGUGGGUAAAGAGUUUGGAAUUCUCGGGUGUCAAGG`, the log2 enrichment was 1.29.
`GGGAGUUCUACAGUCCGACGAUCCUCAAGUCCUGUGCUACACAUCGUAUGUACCGAAUCGGGGCCGGGCCGGCCGGGAAAGUAUUAUGUUACGCCGUUCGGAUCUGCACUUCCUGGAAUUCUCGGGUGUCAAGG` gave a log2 enrichment of 0.861.
`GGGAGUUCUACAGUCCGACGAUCAAGUCCUGUGCUACACAUCGUAUGUACCGAAUCGGGGAAAGGGGAAAGGGGAGGGGAAAGUAUUAUGUUACGCCGUUCGGAUCUGCACUUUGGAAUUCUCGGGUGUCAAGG` gave a log2 enrichment of 0.583.
`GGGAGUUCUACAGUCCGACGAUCUCCUGUGCUACACAUCGUAUGUACCGAAUCGGGAAAGGGUUUUUUUGGGUUUUUUUGGGAAAGUAUUAUGUUACGCCGUUCGGAUCUGCAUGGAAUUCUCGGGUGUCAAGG` gave a log2 enrichment of -1.53.
With `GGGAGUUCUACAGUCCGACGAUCAAGUCCUGUGCUACACAUCGUAUGUACCGAAUCGGGCCCCGGCCCCGGGGCCCCGGGAAAGUAUUAUGUUACGCCGUUCGGAUCUGCACUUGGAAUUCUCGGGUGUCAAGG` the log2 enrichment was -2.82.
For `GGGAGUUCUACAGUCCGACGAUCUAGGAAAACCGUCUUCAGAUACAGUCCCUAAGCCCAAGAGAGCCCCAAAACAGAAGAAAGUAGUAGAGGCUGUAAACUCUGACUCGGAUUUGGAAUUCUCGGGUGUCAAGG`, the log2 enrichment was 1.11.
For `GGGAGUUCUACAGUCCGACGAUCUAACUUUAGAGGAGUAUCUGAUGGAUAUGGCAGUGGACGUGGAUUUGGGGAUGGCUAUAAUGGGUAUGGAGGAGGACCUGGAGGUGGCAAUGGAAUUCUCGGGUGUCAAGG`, the log2 enrichment was 0.172.

Block 3 — method: RNA Bind-n-Seq; form: RNA; sample: in vitro; concentration: not given; relative to: input RNA pool; reading: higher = stronger binding
Target: RING finger protein unkempt homolog, zinc fingers 1-6, GST-SBP tag (UNK, Homo sapiens, UniProt Q9C0B0, residues 30-357)
UniProt Q9C0B0, sequence (30-357, looked up): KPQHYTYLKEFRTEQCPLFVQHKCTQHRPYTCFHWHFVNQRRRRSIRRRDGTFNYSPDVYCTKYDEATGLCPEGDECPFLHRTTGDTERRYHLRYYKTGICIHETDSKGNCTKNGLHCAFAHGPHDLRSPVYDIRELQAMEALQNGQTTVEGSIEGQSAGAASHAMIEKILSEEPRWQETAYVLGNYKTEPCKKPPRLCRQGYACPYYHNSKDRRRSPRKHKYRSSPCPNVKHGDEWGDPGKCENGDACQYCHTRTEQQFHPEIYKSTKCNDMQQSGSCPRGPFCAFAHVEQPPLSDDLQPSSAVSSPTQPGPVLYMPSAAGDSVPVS
Setting: RNA with constant flanks, human-mouse chimeric sites, ends assumed
For `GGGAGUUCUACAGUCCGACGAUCGCCACCAGAUCCCAGAAACAUGACCCUUGCUGCCUACAAAGAGAAGAUGAAGGAGCUCCCGCUGGUGUCCUUGUUCUGCUCCUGCUUCUUGUCUGAUCCCCUGAAUAAGUCGUCCUACAACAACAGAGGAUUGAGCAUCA`, the bound/input enrichment was 0.306 ratio.
With `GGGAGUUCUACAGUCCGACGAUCGUUCGGCUCUGGGAUCAUGCCACAAUGACAGAAGUGAAAUCUCUAAAUUUUAAUAUGUCUGUUAGCAGCAUGGAGUAUAUUCCUGAGGGAGAGAUUUUGGUUAUUACUUAUGGACGAUCUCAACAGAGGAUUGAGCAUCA` the bound/input enrichment was 0.379 ratio.
`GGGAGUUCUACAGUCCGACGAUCACCUCCCAGGCCUGGGACACCCCACCCCCGCUUUUUGGAAAGUUUUUGGCGUUUCUUUUCCUUCCCCAUACAAAGUGGUUUUUACCACCCCCGCAAGGGUCUAUCGAAGGGCUUGACGGACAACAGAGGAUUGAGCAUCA` has a bound/input enrichment of 0.404 ratio.
For `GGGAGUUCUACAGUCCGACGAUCAAUUUCCUGUCAUACUUUUUAGACAUUCACAUCAGACUUACAGAGCACCUGGCCACAUUCUAGGUUUGUGUUAUUUCUAAGCCUUUUAUAUGAUCAAAGAGUGAAAAUGCUUAACUAAUGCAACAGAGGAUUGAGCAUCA`, the bound/input enrichment was 0.268 ratio.
`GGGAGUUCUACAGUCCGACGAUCUUGAAAACUGAUUCAAGUAAGUUUGAGUAUCACAAUGUUAGCUUUCUAAUUCCAUAAAGAUAGUUUUUACAGUUUCUUUAUAAUCUGACAUCACCCCAGCGCCAUUUGUAAAGAGCAACUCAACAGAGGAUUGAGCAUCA` gave a bound/input enrichment of 3.22 ratio.
For `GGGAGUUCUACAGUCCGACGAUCAAUUUCCUGUCAUACUUUUUAGACAUUCACAUCAGACUUACAGAGCAUUGGGCCUCUUUCUAGGUUUGUGUUAUUUCUCAGCUAUGGAUAUGAUCAAAUGAGAACACUGCUUAACUAAUGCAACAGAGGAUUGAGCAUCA`, the bound/input enrichment was 0.49 ratio.
The bound/input enrichment of `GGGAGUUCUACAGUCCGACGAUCCACAGAGCAGCACCUACCCCCUCCUCCUUUCCACACCUGCAAACUCUUUUACUUGGGCUGCAUAGUUAGUGUUAAUUCAUCUCAGCUUUGAGGGCUCCUGUGGCAAAUUCCCGGAUUAAACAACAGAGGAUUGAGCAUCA` is reported as 4.41 ratio.
The bound/input enrichment of `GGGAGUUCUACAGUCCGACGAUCCACAGAGCAGCACCUACCCCCUCCUCCUUUCCACACCUGCAAACUCUUUUACUUGGGCUGAAUAUUUAGUGUAAUUAACAUCGCAGCUUGAGGGCUCCCUGUGGCAAUUCCCGGAUUAAACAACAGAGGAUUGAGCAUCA` is reported as 2.18 ratio.

Block 4 — method: protein binding microarray; form: double-stranded DNA, one strand shown; sample: in vitro; concentration: not given; relative to: not given; reading: higher = stronger binding
Target: Histone acetyltransferase KAT6A, winged helix 1, GST fusion (KAT6A, Homo sapiens, UniProt Q92794, residues 1-85)
Setting: 8-mer, flanks averaged, mean of 2 arrays, mostly near background
Target sequence (chain): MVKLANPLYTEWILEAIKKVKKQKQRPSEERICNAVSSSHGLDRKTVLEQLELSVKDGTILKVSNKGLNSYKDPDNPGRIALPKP
`GAGTAACA` gave an E-score of 0.0468.
For `ACCTATGA`, the E-score was -0.138.
`CAACTTGC` gave an E-score of -0.0968.
`GCATTCTA` gave an E-score of -0.105.
With `GCAAAAGA` the E-score was 0.0196.
With `CAATGTGG` the E-score was 0.0165.
With `AAATATGT` the E-score was -0.0353.
For `CAGTATCA`, the E-score was -0.107.
`ATTATCCG` gave an E-score of 0.198.
With `ATTTGGAG` the E-score was -0.247.
`CAGACTTA` gave an E-score of -0.137.
For `ATAACTCG`, the E-score was 0.0283.
`CTGTTGCA` has an E-score of -0.0285.
For `GCGCTGAC`, the E-score was 0.324.
For `ACGTCCGC`, the E-score was 0.329.
`AGCGTCCT` has an E-score of 0.0391.
